Measured values of several laboratories.
Every numbered part comes from another study and shows a few of its results, in no order.
Sequence of UniProt P51451 (whole entry, looked up): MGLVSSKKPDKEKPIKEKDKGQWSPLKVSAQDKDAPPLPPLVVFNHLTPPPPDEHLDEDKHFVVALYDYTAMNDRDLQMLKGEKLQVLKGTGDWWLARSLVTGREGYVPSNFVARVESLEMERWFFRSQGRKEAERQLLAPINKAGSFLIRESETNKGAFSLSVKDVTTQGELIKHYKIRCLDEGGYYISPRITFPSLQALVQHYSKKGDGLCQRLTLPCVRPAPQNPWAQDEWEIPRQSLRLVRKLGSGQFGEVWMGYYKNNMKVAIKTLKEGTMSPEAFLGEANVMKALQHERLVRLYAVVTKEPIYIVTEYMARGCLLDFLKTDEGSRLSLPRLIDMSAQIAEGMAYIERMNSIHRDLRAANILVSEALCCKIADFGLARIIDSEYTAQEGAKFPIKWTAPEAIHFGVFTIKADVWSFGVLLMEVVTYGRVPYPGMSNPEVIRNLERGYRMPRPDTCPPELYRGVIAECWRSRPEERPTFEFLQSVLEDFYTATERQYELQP
Sequence of UniProt P20794 (whole entry, looked up): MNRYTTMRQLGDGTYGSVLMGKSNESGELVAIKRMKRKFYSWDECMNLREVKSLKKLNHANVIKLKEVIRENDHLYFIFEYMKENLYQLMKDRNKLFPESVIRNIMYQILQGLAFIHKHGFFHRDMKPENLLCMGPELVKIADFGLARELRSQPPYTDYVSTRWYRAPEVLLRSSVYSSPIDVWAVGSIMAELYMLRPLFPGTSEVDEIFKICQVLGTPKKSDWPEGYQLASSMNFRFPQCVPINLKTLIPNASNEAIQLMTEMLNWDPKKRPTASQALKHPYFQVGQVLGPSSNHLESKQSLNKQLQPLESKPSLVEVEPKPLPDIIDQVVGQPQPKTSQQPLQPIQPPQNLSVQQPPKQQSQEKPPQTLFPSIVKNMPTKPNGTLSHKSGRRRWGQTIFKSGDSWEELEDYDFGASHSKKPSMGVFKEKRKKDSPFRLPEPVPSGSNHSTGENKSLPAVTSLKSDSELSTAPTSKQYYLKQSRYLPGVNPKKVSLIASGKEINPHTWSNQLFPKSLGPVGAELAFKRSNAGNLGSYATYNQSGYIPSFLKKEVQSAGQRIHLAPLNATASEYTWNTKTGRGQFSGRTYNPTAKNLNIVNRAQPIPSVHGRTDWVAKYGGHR
Sequence of UniProt Q9H4B4 (whole entry, looked up): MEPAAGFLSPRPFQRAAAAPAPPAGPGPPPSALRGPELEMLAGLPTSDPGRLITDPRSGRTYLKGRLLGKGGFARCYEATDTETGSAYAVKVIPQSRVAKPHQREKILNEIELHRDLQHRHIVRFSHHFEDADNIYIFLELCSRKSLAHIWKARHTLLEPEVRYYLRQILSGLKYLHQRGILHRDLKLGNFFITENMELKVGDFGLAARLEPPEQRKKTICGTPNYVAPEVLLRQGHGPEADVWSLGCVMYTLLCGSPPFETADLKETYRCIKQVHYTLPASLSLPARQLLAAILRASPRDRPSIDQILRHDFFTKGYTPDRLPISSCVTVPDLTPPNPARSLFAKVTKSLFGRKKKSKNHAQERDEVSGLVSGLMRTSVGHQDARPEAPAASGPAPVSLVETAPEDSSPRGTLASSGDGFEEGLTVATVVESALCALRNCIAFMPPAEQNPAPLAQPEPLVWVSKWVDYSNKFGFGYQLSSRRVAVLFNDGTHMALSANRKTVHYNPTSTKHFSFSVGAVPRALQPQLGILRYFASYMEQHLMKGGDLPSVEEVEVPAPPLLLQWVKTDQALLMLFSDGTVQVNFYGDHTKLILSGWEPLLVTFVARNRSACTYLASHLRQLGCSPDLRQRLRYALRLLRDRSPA
Sequence of UniProt P48736 (whole entry, looked up): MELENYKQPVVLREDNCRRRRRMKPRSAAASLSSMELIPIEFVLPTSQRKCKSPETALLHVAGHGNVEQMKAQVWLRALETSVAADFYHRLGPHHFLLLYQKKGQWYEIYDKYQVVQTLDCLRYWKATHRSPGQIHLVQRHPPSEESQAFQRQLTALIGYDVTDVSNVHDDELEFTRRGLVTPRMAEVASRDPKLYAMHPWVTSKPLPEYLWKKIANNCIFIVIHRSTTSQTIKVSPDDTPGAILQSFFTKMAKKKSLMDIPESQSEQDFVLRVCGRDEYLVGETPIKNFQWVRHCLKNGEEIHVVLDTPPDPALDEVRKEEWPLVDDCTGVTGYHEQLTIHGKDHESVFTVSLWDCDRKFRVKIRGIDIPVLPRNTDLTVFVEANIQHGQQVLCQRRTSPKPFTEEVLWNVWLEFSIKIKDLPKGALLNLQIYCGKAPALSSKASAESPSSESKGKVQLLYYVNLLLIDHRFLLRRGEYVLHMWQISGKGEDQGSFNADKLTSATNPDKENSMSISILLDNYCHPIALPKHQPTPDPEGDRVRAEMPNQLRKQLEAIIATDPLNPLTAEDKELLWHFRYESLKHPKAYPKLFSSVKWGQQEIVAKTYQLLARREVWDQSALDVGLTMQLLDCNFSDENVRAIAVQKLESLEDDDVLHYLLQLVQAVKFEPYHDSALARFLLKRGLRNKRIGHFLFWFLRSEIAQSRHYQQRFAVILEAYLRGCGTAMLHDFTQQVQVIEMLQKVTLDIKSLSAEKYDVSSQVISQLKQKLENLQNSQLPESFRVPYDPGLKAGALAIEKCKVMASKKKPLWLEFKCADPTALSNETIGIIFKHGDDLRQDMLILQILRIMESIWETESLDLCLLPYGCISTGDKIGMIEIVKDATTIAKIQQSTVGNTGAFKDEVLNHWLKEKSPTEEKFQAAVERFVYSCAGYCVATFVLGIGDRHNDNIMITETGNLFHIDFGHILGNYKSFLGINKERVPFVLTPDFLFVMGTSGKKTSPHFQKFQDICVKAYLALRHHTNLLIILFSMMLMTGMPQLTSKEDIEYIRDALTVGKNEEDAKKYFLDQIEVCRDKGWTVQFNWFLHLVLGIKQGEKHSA
Sequence of UniProt P51956 (whole entry, looked up): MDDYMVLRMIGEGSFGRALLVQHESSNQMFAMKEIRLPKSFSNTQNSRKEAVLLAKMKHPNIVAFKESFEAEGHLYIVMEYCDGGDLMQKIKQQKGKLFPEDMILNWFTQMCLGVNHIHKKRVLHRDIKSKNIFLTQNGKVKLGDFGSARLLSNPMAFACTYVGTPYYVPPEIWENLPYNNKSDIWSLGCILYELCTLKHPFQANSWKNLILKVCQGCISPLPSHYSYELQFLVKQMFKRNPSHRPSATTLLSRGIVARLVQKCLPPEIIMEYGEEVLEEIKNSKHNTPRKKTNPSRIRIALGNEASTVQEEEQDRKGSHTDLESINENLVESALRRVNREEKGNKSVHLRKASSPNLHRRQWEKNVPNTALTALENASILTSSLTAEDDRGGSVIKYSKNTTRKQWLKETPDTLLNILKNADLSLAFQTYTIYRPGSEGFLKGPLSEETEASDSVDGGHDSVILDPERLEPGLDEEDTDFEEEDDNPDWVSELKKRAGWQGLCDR
Sequence of UniProt Q02750 (whole entry, looked up): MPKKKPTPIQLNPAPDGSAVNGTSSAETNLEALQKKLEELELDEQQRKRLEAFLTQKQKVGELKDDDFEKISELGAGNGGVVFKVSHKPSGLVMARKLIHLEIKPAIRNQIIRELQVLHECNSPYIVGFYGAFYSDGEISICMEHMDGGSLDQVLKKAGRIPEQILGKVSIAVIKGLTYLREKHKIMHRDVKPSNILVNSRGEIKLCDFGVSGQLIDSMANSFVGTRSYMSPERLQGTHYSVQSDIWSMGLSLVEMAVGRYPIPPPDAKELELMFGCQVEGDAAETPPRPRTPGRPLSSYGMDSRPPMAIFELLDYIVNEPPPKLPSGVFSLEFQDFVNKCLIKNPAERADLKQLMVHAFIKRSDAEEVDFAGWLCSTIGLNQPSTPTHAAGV
Sequence of UniProt P32298 (whole entry, looked up): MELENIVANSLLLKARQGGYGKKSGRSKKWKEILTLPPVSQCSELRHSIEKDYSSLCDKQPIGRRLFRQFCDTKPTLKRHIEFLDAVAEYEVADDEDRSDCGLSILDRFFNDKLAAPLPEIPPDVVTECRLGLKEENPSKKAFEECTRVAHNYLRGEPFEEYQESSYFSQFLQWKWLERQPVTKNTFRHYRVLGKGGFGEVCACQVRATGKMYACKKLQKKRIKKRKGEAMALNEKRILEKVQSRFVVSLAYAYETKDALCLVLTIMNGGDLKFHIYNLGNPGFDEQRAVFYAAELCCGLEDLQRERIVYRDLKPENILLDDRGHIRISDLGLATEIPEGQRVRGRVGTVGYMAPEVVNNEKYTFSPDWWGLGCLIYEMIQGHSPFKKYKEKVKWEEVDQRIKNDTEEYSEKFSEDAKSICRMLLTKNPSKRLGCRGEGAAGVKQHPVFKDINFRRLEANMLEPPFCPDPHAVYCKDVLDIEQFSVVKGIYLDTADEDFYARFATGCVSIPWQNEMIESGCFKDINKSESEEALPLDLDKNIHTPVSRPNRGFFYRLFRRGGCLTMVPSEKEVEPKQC
Sequence of UniProt Q9NY57 (whole entry, looked up): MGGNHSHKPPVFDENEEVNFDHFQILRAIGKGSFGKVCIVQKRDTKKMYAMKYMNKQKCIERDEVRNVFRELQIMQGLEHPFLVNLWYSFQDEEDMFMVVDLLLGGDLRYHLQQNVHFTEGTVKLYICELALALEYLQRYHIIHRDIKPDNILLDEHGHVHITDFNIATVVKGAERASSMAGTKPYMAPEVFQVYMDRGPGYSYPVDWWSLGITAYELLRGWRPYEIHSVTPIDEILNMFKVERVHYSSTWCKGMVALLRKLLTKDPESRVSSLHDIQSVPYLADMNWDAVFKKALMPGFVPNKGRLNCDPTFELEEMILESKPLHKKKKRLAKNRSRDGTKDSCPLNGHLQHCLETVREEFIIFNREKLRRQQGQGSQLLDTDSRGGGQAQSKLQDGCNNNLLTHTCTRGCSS

Sample 1 — medium: plasma; route: oral
Compound: COc1ccc(-c2c(Nc3ccccn3)[nH]c3c(C4=CCCCC4)c(-c4ccccc4)nn3c2=O)cc1
It gave 1510 ng/mL for “plasma concentration, mean” (cancer patients; 200 mg, 3 h post-dose, single dose).
The “plasma concentration, mean” was 3390 ng/mL (human patients; 400 mg once daily, 0 h, cycle 1).
For LC-MS/MS; human; 200 mg twice daily, 4 h, single dose: “plasma concentration, mean” read 1610 ng/mL.
The “plasma concentration, mean” was 383 ng/mL (cancer patients; 50 mg, 8 h post-dose, single dose).
The “plasma concentration, mean” was 447 ng/mL (cancer patients; 50 mg, 3 h post-dose, single dose).
For human patients; 100 mg once daily, 6 h, cycle 1: “plasma concentration, mean” read 3730 ng/mL.
cancer patients; 150 mg, 8 h post-dose, single dose — “plasma concentration, mean”: 1210 ng/mL.
human patients; 150 mg once daily, 2 h, cycle 1 — “plasma concentration, mean”: 6120 ng/mL.
It gave 86.2 ng/mL for “plasma concentration, mean” (cancer patients; 100 mg, 0.5 h post-dose, single dose).
The “plasma concentration, mean” was 1300 ng/mL (cancer patients; 150 mg, 2 h post-dose, single dose).
For cancer patients; 400 mg, 72 h post-dose, single dose: “plasma concentration, mean” read 101 ng/mL.

Sample 2 — Structure (SMILES): CNc1cc2c(Nc3cccc(Br)c3)ncnc2cn1; effect on: enzyme activity; action: inhibitor; concentration: 0.5 µM; baseline: control
The remaining activity was 60.9% (CLK4 (Homo sapiens, UniProt Q9HAZ1)).
The remaining activity was 101% (NEK3 (Homo sapiens, UniProt P51956)).
It gave 88.6% for remaining activity (MAPK1 (Homo sapiens, UniProt P28482)).
GRK4 (Homo sapiens, UniProt P32298) — remaining activity: 98.2%.
For MAPK11 (Homo sapiens, UniProt Q15759): remaining activity read 115%.
CLK3 (Homo sapiens, UniProt P49761) — remaining activity: 87.6%.
The remaining activity was 102% (PRKG2 (Homo sapiens, UniProt Q13237)).
It gave 96.4% for remaining activity (PLK3 (Homo sapiens, UniProt Q9H4B4)).
It gave 114% for remaining activity (TLK2 (Homo sapiens, UniProt Q86UE8)).
For Cyclin-dependent kinase 9, with cyclin K (CDK9, Homo sapiens, UniProt P50750): remaining activity read 105%.
It gave 100% for remaining activity (PNCK (Homo sapiens, UniProt Q6P2M8)).
The remaining activity was 91.9% (MINK1 (Homo sapiens, UniProt Q8N4C8)).
The remaining activity was 74.6% (MAP2K1 (Homo sapiens, UniProt Q02750)).
The remaining activity was 77.6% (KDR (Homo sapiens, UniProt P35968)).

Sample 3 — effect on: cell-free assay; method: competition with immobilised ligand; concentration: 0.1 µM
Structure (SMILES): C[C@@H]1CN(c2cc(-c3n[nH]c4ccc(OC5(C)CC5)cc34)ncn2)C[C@H](C)O1
For BLK (Homo sapiens, UniProt P51451): remaining binding read 83%.
EGFR (Homo sapiens, UniProt P00533) — remaining binding: 76%.
CDK3 (Homo sapiens, UniProt Q00526) — remaining binding: 76%.
For Tyrosine-protein kinase ABL1, phosphorylated (ABL1, Homo sapiens, UniProt P00519, T315I): remaining binding read 86%.
The remaining binding was 95% (MAK (Homo sapiens, UniProt P20794)).
RET (Homo sapiens, UniProt P07949, V804M) — remaining binding: 97%.
It gave 81% for remaining binding (SRC (Homo sapiens, UniProt P12931)).
STK4 (Homo sapiens, UniProt Q13043) — remaining binding: 83%.
PIK3CA (Homo sapiens, UniProt P42336, E542K) — remaining binding: 81%.
The remaining binding was 63% (CDK8 (Homo sapiens, UniProt P49336)).
For CDK15 (Homo sapiens, UniProt Q96Q40): remaining binding read 100%.
For PIK3CG (Homo sapiens, UniProt P48736): remaining binding read 72%.
For STK32B (Homo sapiens, UniProt Q9NY57): remaining binding read 92%.

Sample 4 — cell line: A-375; concentration: 100 µM; time: 18 h
For `CC[C@H]1OC(=O)[C@H](C)[C@@H](O[C@H]2C[C@@](C)(OC)[C@@H](O)[C@H](C)O2)[C@H](C)[C@@H](O[C@@H]2O[C@H](C)C[C@H](N(C)C)[C@H]2O)[C@](C)(OC)C[C@@H](C)C(=O)[C@H](C)[C@@H](O)[C@]1(C)O`, the viability was 78%.
With `CCOC(=O)c1ccc(C#Cc2ccc3c(c2)C(C)(C)CCS3)nc1` the viability was 60.9%.
For `O=S(=O)(O)c1cc(O)ccc1O`, the viability was 102%.
With `CNC(=O)c1cc(Oc2ccc(NC(=O)Nc3ccc(Cl)c(C(F)(F)F)c3)c(F)c2)ccn1` the viability was 35.7%.
For `CCCCC1=NC2(CCCC2)C(=O)N1Cc1ccc(-c2ccccc2-c2nnn[nH]2)cc1`, the viability was 98.7%.
`COc1cccc(N(C)C(=S)Oc2ccc3c(c2)CCCC3)n1` gave a viability of 94%.
The viability of `Brc1c(NC2=NCCN2)ccc2nccnc12` is reported as 102%.
For `CC1(C)S[C@@H]2[C@H](NC(=O)[C@H](N)c3ccccc3)C(=O)N2[C@H]1C(=O)OCOC(=O)[C@@H]1N2C(=O)C[C@H]2S(=O)(=O)C1(C)C`, the viability was 96.4%.
The viability of `CC(C)COc1ccc(CNC(=O)N(Cc2ccc(F)cc2)C2CCN(C)CC2)cc1` is reported as 7.89%.
The viability of `NC[C@H]1O[C@H](O[C@H]2[C@H](O)[C@@H](O[C@H]3O[C@H](CO)[C@@H](O)[C@H](N)[C@H]3O)[C@H](N)C[C@@H]2N)[C@H](N)C[C@@H]1O` is reported as 92.3%.

Some of these lines once more (sample 2):
The remaining activity was 77.6% (KDR (Homo sapiens, UniProt P35968)).
CLK3 (Homo sapiens, UniProt P49761) — remaining activity: 87.6%.
The remaining activity was 74.6% (MAP2K1 (Homo sapiens, UniProt Q02750)).
GRK4 (Homo sapiens, UniProt P32298) — remaining activity: 98.2%.
It gave 114% for remaining activity (TLK2 (Homo sapiens, UniProt Q86UE8)).
